Measured values pooled from the literature.
Parts stem from different laboratories: compare values within a part only.

Amino acid sequences for entries named in this document (tags omitted).
UniProt P45983, whole entry: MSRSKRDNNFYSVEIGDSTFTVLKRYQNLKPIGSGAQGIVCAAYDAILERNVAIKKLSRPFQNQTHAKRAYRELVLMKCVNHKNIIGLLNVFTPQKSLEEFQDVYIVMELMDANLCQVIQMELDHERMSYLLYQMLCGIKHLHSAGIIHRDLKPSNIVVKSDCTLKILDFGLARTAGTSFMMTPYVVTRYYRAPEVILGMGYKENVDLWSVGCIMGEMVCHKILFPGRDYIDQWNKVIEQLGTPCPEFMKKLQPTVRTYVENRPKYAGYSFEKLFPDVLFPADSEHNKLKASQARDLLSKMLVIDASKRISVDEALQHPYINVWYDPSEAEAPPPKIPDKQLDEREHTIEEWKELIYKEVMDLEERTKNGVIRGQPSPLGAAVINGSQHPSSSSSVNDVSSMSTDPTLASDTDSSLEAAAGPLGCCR

Sample 1
SMILES: N#Cc1c(-c2ccc(Cl)cc2Cl)n(-c2nc(-c3ccc(Cl)cc3)c3c(NC(=O)c4ccccc4)nnc-3[nH]2)[nH]c1=O
Quantity: CC50
cell line = RPMI-8226; assay = SRB; value = > 100 µM
cell line = HL-60(TB); value = > 100 µM
cell line = K562; assay = SRB; value = > 100 µM

Single results of other studies
SMILES = CC(C)C[C@H](NC(=O)[C@H](C)NC(=O)[C@H](CCCNC(=N)N)NC(=O)[C@H](CCCNC(=N)N)NC(=O)[C@H](CCCNC(=N)N)NC(=O)[C@H](C)NC(=O)[C@H](CC(C)C)NC(=O)[C@H](CCCNC(=N)N)NC(=O)[C@H](CO)NC(=O)[C@H](CCCCN)NC(=O)[C@H](CO)NC(=O)Cn1cc(COC(=O)[C@]2(C)C=C(C(=O)OC(C)(C)C)C(=O)CC2)nn1)C(=O)O; target or system = MAPK8 (Homo sapiens, UniProt P45983); assay = binding, competitor, fluorescence polarization; setting = 3.125 µM; how to read = higher = less displacement; quantity = fraction bound; value = 0.311
SMILES = CCOc1ccc(C2C(C#N)=C(N)Oc3c2c(C)nn3-c2ccc(Cl)cc2)cc1 (stereo not drawn); target or system = Vero E6; setting = 1.6 µM; quantity = viability; value = 67.7%
SMILES = C=C(C)C(=O)Nc1ccc(-c2c(-c3ccc(Oc4nccc(C)n4)c(F)c3)c3c(N)ncnc3n2C)cc1; target or system = EN; assay = cell growth, CellTiter-Glo; setting = concentration not given, 120 h, unit not given; how to read = relative to: untreated growth rate, lower = stronger inhibition; quantity = GR at highest concentration; value = -0.156

Repeated from above (sample 1):
cell line = RPMI-8226; assay = SRB; value = > 100 µM
